Assay results from different studies.
Numbered parts are unrelated; each lists some results of a single study.

Block 1
Target: Max dimerization protein 1, bHLH-zipper, MAX partner unstated (MXD1, Homo sapiens, UniProt Q05195, residues 56-136)
Technique: protein-binding microarray
Molecule type: double-stranded DNA, one strand shown
Medium: in vitro
Concentration: not given
Setting: k-mer, scored over probes, only values ≥0.25
Direction: higher = stronger binding
Construct (chain): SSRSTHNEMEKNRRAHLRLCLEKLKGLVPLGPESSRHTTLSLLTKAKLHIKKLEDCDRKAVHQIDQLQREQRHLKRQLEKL
| Sequence | E-score |
| --- | --- |
| CATGTACA | 0.253 |
| CGTGGGGA | 0.275 |
| AACACACG | 0.317 |
| ACGGCATG | 0.4 |
| CGCATGCC | 0.419 |
| GGGTGGAA | 0.253 |
| ACCTCCCC | 0.276 |
| AATGTGTC | 0.273 |

Block 2
Target: Runt-related transcription factor 1, full length (RUNX1, Homo sapiens, UniProt Q01196-8, residues 1-480)
Technique: protein-binding microarray
Molecule type: hairpin DNA
Medium: in vitro
Concentration: not given
Setting: whole hairpin DNA, median over replicate spots
Relative to: not given
Direction: higher = stronger binding
| Sequence | median fluorescence |
| --- | --- |
| GAGGCCTGTTGCGGTCGGCCTCCTGGCCGACCGCAACAGGCCTCACACTC (5mC at 16 28) | 4710 a.u. |
| GAGGCCTGTTGTGGTCGGCCTCCTGGCCGACCACAACAGGCCTCACACTC | 3030 a.u. |
| GAGGCCCACCCGCAACAGCCTCCTGGCTGTTGCGGGTGGGCCTCACACTC (5mC at 9) | 2330 a.u. |
| GAGGCCTGTTGCTGTTGGCCTCCTGGCCAACAGCAACAGGCCTCACACTC | 1690 a.u. |
| GAGGCCTGCGGTGGTTGGCCTCCTGGCCAACCACCGCAGGCCTCACACTC | 2730 a.u. |
| GAGGCCTGCCGCGGTTGGCCTCCTGGCCAACCGCGGCAGGCCTCACACTC (5mC at 9) | 2620 a.u. |
| GAGGCCTGTTACGGTTGGCCTCCTGGCCAACCGTAACAGGCCTCACACTC | 1760 a.u. |
| CTCAGTTCTGTGGCCTGGACTCCTGTCCAGGCCACAGAACTGAGACACTC | 1910 a.u. |

Block 3
Target: Mast/stem cell growth factor receptor Kit (KIT, Homo sapiens, UniProt P10721)
Chain of UniProt P10721 (whole entry, looked up): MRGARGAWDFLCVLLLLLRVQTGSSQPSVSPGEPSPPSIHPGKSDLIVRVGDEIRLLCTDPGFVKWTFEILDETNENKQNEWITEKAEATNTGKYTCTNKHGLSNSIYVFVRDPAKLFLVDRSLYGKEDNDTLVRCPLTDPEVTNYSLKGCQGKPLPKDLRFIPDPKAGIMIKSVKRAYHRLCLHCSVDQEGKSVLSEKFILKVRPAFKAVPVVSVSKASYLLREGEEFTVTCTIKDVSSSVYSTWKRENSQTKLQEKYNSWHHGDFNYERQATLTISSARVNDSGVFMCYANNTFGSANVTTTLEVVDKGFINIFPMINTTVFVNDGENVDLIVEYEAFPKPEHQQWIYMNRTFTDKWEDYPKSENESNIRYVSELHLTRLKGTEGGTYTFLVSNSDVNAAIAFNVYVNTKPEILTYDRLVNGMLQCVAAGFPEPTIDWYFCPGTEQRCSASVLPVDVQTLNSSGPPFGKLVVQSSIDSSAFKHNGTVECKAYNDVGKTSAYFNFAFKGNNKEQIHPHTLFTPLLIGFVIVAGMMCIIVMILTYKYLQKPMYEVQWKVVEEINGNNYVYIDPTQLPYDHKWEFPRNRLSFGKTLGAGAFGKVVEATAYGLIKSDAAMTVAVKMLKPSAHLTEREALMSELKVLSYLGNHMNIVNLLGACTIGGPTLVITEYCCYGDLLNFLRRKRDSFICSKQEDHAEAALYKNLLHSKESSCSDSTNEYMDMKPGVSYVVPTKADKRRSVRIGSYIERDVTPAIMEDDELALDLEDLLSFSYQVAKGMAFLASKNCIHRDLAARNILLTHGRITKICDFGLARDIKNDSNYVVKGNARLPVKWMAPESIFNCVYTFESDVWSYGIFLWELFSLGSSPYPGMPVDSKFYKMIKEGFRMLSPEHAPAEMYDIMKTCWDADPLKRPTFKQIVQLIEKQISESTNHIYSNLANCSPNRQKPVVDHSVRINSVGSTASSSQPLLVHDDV
Observed: enzyme activity
Mode: inhibitor
Concentration: 0.5 µM
Relative to: control
| Compound | remaining activity |
| --- | --- |
| Nc1ncnc2n[nH]c(Nc3ccc(F)cc3)c12 | 93.5% |
| OCC(O)CCON=C1C(c2c(O)[nH]c3ccccc23)=Nc2ccccc21 (stereo not shown) | 44.8% |
| CN(C)c1ccc(C=C2C(=O)Nc3ccccc32)cc1 | 45.6% |
| O=C1NC(=O)C(c2cn(CCCO)c3ncccc23)=C1c1cnccn1 | 93% |
| COc1ccc(CNC(=O)Nc2ncc([N+](=O)[O-])s2)cc1 | 103% |
| Cc1nc(-c2ccccc2)c(-c2ccncc2)o1 | 93.7% |
| CC(C)[C@H](CO)Nc1nc(Nc2cc(N)cc(Cl)c2)c2ncn(C(C)C)c2n1 | 86.2% |
| N#CC(C#N)=C(N)/C(C#N)=C/c1ccc(O)cc1 | 92.4% |
| O=C(Nc1cccc(Nc2cc(Nc3cccc(C(F)(F)F)c3)ncn2)c1)C1CC1 | 99.9% |
| O=C(O)c1ccc2c3c1cccc3c(=O)n1c3ccccc3nc21 | 93.5% |
| O=c1c2ccccc2[nH]c(=S)n1CCN1CCC(=C(c2ccc(F)cc2)c2ccc(F)cc2)CC1 | 103% |
| Cc1cccc(-c2[nH]c(C(C)(C)C)nc2-c2ccc3c(c2)OCO3)n1 | 93.6% |

Block 4
Target: 5-hydroxytryptamine receptor 7 (HTR7, Homo sapiens, UniProt P34969)
Chain of UniProt P34969 (whole entry, looked up): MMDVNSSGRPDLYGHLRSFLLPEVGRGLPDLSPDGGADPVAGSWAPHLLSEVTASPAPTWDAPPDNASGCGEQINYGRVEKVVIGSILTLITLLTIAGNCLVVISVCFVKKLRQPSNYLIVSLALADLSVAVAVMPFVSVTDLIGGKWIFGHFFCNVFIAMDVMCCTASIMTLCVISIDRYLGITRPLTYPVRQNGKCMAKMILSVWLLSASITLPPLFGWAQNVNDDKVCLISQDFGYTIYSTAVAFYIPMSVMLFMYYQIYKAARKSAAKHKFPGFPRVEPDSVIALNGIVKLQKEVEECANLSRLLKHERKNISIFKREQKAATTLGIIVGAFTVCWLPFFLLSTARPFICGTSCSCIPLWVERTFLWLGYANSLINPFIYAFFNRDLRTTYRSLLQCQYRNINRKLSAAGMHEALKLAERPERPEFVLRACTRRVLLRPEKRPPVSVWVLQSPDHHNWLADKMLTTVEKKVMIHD
Observed: ligand displacement
Concentration: 10 µM
| Compound | inhibition |
| --- | --- |
| O=C(Nc1ccc(Oc2ccc(F)cc2)cc1)N1CCc2ncccc2[C@H]1c1ccc(F)cc1 | -11.8% |
| COCCOc1nc(-c2ccc(Cl)nc2)nc2c1CN(C(=O)c1ncn3ccccc13)CC2 | 42.3% |
| COc1cc(-c2cn(C3CCc4c(F)cccc4N(CC(F)(F)F)C3=O)nn2)ccc1-n1cnc(C)c1 (stereo not shown) | 26.8% |
| Cc1cc(Nc2nccc(C)n2)cc(-c2cnc([C@@]3(O)CC[C@H](C(=O)O)C(C)(C)C3)s2)c1 | -15.2% |
| CC[C@H](CC(=O)O)n1c(=O)c2ncccc2n(Cc2cn(C)c3cc(C)cc(C)c23)c1=O | 27.2% |
| C[C@@H]1CN(c2cc(-c3n[nH]c4ccc(OC5(C)CC5)cc34)ncn2)C[C@H](C)O1 | -12.9% |
| C[C@H](c1ccnc(Nc2nc3ccc(-c4cc(N(C)C)ncn4)cc3[nH]2)c1)N1CCN(C(=O)CC(F)(F)F)CC1 | 16.6% |
| CC(=O)Nc1ncc(CN2CCC[C@H](Cc3cc(C)nc(C)c3)C2)s1 | 9.6% |
| Cc1ccc(-c2cnc([C@@]3(O)CC[C@H](C(=O)O)C(C)(C)C3)s2)cc1Nc1cccc(C(F)(F)F)n1 | -16.4% |
| NS(=O)(=O)c1cc(NC(=O)Cc2ccccc2)ccc1Oc1cccc(Cl)c1 | 35.2% |
| COc1cc(N[C@@H]2CCCC[C@]2(O)C(F)(F)F)ccc1F | -11.5% |
| NC(=O)c1ccc2nc(-c3ccc(C4(N)CCC4)cc3)c(-c3ccccc3)n2n1 | 12.9% |
| Cc1noc([C@H]2C[C@@H](c3ccc(C(F)(F)F)cc3)CN(C(=O)N3CCS(=O)(=O)C3)C2)n1 | 21.8% |
| O=C(N[C@H]1CCCCC/C=C\C2C[C@@]2(C(=O)O)NC(=O)[C@@H]2C[C@@H](Oc3ccncc3)CN2C1=O)OC1CCCC1 (stereo partly shown) | -3.24% |
| CN1CCN(c2cnc3c(C4CCN(C(=O)c5ccc(OC(F)(F)F)cc5N)CC4)ncnc3c2)CC1 | -9.57% |

Repeated from above (block 1):
| Sequence | E-score |
| --- | --- |
| CGCATGCC | 0.419 |
| GGGTGGAA | 0.253 |
| ACCTCCCC | 0.276 |
| AATGTGTC | 0.273 |
